Results of several laboratories.
Lines come from different studies, so protocols differ. ± gives the spread as reported.

Compound | species | sample | route | dose | time | setting | tissue uptake
N=C(N)NCCC[C@@H]1NC(=O)[C@H](CCCCNC(=O)CC[C@H](NC(=O)CCOCCOCCOCCOCCNC(=O)CN2CCN(CC(=O)O)CCN(CC(=O)O)CCN(CC(=O)O)CC2)C(=O)NCCCC[C@@H]2NC(=O)[C@@H](Cc3ccccc3)NC(=O)[C@H](CC(=O)O)NC(=O)CNC(=O)[C@H](CCCNC(=N)N)NC2=O)NC(=O)[C@@H](Cc2ccccc2)NC(=O)[C@H](CC(=O)O)NC(=O)CNC1=O [indium-111 labelled] | female athymic nude mice | brain | intravenous | 3 µCi | 4 h | U-87 MG glioma xenograft | 0.09 ± 0.05 %ID/g
N=C(N)NCCC[C@@H]1NC(=O)[C@H](CCCCNC(=O)CC[C@H](NC(=O)[C@H](CCCCNC(=O)c2ccc(NN)nc2)NC(=O)c2ccc(NN)nc2)C(=O)NCCCC[C@@H]2NC(=O)[C@@H](Cc3ccccc3)NC(=O)[C@H](CC(=O)O)NC(=O)CNC(=O)[C@H](CCCNC(=N)N)NC2=O)NC(=O)[C@@H](Cc2ccccc2)NC(=O)[C@H](CC(=O)O)NC(=O)CNC1=O [technetium-99m labelled] | female athymic nude mice | liver | intravenous | 0.1 MBq | 1 h | U-87 MG glioma xenograft | 1.55 ± 0.27 %ID/g
N=C(N)NCCC[C@@H]1NC(=O)[C@H](CCCCNC(=O)CCOCCOCCOCCOCCNC(=O)CC[C@H](NC(=O)CCOCCOCCOCCOCCNC(=O)CC[C@H](NC(=O)CN2CCN(CC(=O)O)CCN(CC(=O)O)CCN(CC(=O)O)CC2)C(=O)NCCOCCOCCOCCOCCC(=O)N[C@@H](CCC(=O)NCCOCCOCCOCCOCCC(=O)NCCCC[C@@H]2NC(=O)[C@@H](Cc3ccccc3)NC(=O)[C@H](CC(=O)O)NC(=O)CNC(=O)[C@H](CCCNC(=N)N)NC2=O)C(=O)NCCOCCOCCOCCOCCC(=O)NCCCC[C@@H]2NC(=O)[C@@H](Cc3ccccc3)NC(=O)[C@H](CC(=O)O)NC(=O)CNC(=O)[C@H](CCCNC(=N)N)NC2=O)C(=O)NCCOCCOCCOCCOCCC(=O)NCCCC[C@@H]2NC(=O)[C@@H](Cc3ccccc3)NC(=O)[C@H](CC(=O)O)NC(=O)CNC(=O)[C@H](CCCNC(=N)N)NC2=O)NC(=O)[C@@H](Cc2ccccc2)NC(=O)[C@H](CC(=O)O)NC(=O)CNC1=O [indium-111 labelled] | athymic nude mice, female, U-87 MG glioma xenograft | U-87 MG tumour | intravenous | 3 µCi | 4 h | – | 8.48 ± 2.75 %ID/g
N=C(N)NCCC[C@@H]1NC(=O)[C@H](CCCCNC(=O)CCOCCOCCOCCOCCNC(=O)CC[C@H](NC(=O)[C@H](CCCCNC(=O)c2ccc(NN)nc2)NC(=O)c2ccc(NN)nc2)C(=O)NCCOCCOCCOCCOCCC(=O)NCCCC[C@@H]2NC(=O)[C@@H](Cc3ccccc3)NC(=O)[C@H](CC(=O)O)NC(=O)CNC(=O)[C@H](CCCNC(=N)N)NC2=O)NC(=O)[C@@H](Cc2ccccc2)NC(=O)[C@H](CC(=O)O)NC(=O)CNC1=O [technetium-99m labelled] | female athymic nude mice | liver | intravenous | 0.1 MBq | 1 h | U-87 MG glioma xenograft | 2.74 ± 0.5 %ID/g
CSCC[C@H](NC(=O)[C@H](CC(C)C)NC(=O)[C@H](Cc1c[nH]cn1)NC(=O)CNC(=O)[C@@H](NC(=O)[C@H](C)NC(=O)[C@H](Cc1c[nH]c2ccccc12)NC(=O)[C@H](CCC(N)=O)NC(=O)CCCCCCCNC(=O)CCC(=O)Nc1ccc(CNC23CNCCNCC(N)(CNCCNC2)CNCCNC3)cc1)C(C)C)C(N)=O [copper-64 labelled] | female SCID mice, PC-3 xenograft | lung | intravenous | 0.6 MBq | 1 h | – | 1.25 ± 0.106 %ID/g
CC(C)C[C@H](NC(=O)[C@H](Cc1ccc(O)cc1)NC(=O)[C@@H](CCCNC(=N)N)NC(=O)[C@@H](CO)NC(=O)[C@H](Cc1ccccc1)NC(=O)[C@H](CC1CCCCC1)NC(=O)[C@H](CC(=O)O)NC(=O)CCC(C(=O)O)N1CCCN2CCN(CCCN(CC(=O)O)CC2)CC1)C(=O)N[C@@H](Cc1c[nH]c2ccccc12)C(=O)N[C@@H](CO)C(=O)O (stereo partly drawn) [copper-64 labelled] | female NMRI nude mice | brain | – | – | 1 h p.i. | – | 0.1 ± 0.1 %ID/g
N=C(N)NCCC[C@H](NC(=O)[C@H](CCCCN)NC(=O)[C@H](CCC(N)=O)NC(=O)CCOCCOCCOCCNC(=O)CN1CCN(CC(=O)O)CCN(CC(=O)O)CCN(CC(=O)O)CC1)C(=O)N[C@@H](CCCCN)C(=O)N[C@@H](CCCNC(=N)N)C(=O)N[C@@H](CCCCN)C(=O)N[C@@H](CCCCN)C(=O)N[C@@H](CO)C(=O)N[C@@H](CCCNC(=N)N)C(=O)N[C@@H](Cc1ccc(O)cc1)C(=O)N[C@@H](CCCCN)C(=O)N[C@@H](CO)C(=O)O [copper-64 labelled] | male C57BL/6 mice, B16-F10 tumour | small intestine | intravenous | – | 60 min | – | 1.83 ± 0.39 %ID/g
CSCC[C@H](NC(=O)[C@H](CC(C)C)NC(=O)[C@H](Cc1c[nH]cn1)NC(=O)CNC(=O)[C@@H](NC(=O)[C@H](C)NC(=O)[C@H](Cc1c[nH]c2ccccc12)NC(=O)[C@H](CCC(N)=O)NC(=O)CNC(=O)[C@H](CO)NC(=O)CNC(=O)CCCCCCCNC(=O)CCC(=O)Nc1ccc(CNC23CNCCNCC(N)(CNCCNC2)CNCCNC3)cc1)C(C)C)C(N)=O [copper-64 labelled] | female SCID mice, PC-3 xenograft | muscle | intravenous | 0.6 MBq | 1 h | – | 0.392 ± 0.022 %ID/g
N=C(N)NCCC[C@@H]1NC(=O)[C@H](CCCCNC(=O)CNC(=O)CNC(=O)CNC(=O)CC[C@H](NC(=O)CCOCCOCCOCCOCCNC(=O)CC[C@H](NC(=O)CN2CCN(CC(=O)O)CCN(CC(=O)O)CCN(CC(=O)O)CC2)C(=O)NCCOCCOCCOCCOCCC(=O)N[C@@H](CCC(=O)NCC(=O)NCC(=O)NCC(=O)NCCCC[C@@H]2NC(=O)[C@@H](Cc3ccccc3)NC(=O)[C@H](CC(=O)O)NC(=O)CNC(=O)[C@H](CCCNC(=N)N)NC2=O)C(=O)NCC(=O)NCC(=O)NCC(=O)NCCCC[C@@H]2NC(=O)[C@@H](Cc3ccccc3)NC(=O)[C@H](CC(=O)O)NC(=O)CNC(=O)[C@H](CCCNC(=N)N)NC2=O)C(=O)NCC(=O)NCC(=O)NCC(=O)NCCCC[C@@H]2NC(=O)[C@@H](Cc3ccccc3)NC(=O)[C@H](CC(=O)O)NC(=O)CNC(=O)[C@H](CCCNC(=N)N)NC2=O)NC(=O)[C@@H](Cc2ccccc2)NC(=O)[C@H](CC(=O)O)NC(=O)CNC1=O [indium-111 labelled] | female athymic nude mice | muscle | intravenous | 3 µCi | 4 h | U-87 MG glioma xenograft | 0.52 ± 0.07 %ID/g

A few entries again:
Compound | species | sample | route | dose | time | setting | tissue uptake
N=C(N)NCCC[C@H](NC(=O)[C@H](CCCCN)NC(=O)[C@H](CCC(N)=O)NC(=O)CCOCCOCCOCCNC(=O)CN1CCN(CC(=O)O)CCN(CC(=O)O)CCN(CC(=O)O)CC1)C(=O)N[C@@H](CCCCN)C(=O)N[C@@H](CCCNC(=N)N)C(=O)N[C@@H](CCCCN)C(=O)N[C@@H](CCCCN)C(=O)N[C@@H](CO)C(=O)N[C@@H](CCCNC(=N)N)C(=O)N[C@@H](Cc1ccc(O)cc1)C(=O)N[C@@H](CCCCN)C(=O)N[C@@H](CO)C(=O)O [copper-64 labelled] | male C57BL/6 mice, B16-F10 tumour | small intestine | intravenous | – | 60 min | – | 1.83 ± 0.39 %ID/g
